Assay results pooled from the literature.
Numbered parts are unrelated; each lists some results of a single study.

Sample 1
Target: RING finger protein unkempt homolog, zinc fingers 1-6, GST-SBP tag (UNK, Homo sapiens, UniProt Q9C0B0, residues 30-357)
Technique: RNA Bind-n-Seq
Form: RNA
Medium: in vitro
Tested at: not given
Notes: RNA with constant flanks, human-mouse chimeric sites, ends assumed
Baseline: input RNA pool
Reading: higher = stronger binding
Measurement: bound/input enrichment
All sequences stand within: GGGAGUUCUACAGUCCGACGAUC … CAACAGAGGAUUGAGCAUCA
Residues (chain): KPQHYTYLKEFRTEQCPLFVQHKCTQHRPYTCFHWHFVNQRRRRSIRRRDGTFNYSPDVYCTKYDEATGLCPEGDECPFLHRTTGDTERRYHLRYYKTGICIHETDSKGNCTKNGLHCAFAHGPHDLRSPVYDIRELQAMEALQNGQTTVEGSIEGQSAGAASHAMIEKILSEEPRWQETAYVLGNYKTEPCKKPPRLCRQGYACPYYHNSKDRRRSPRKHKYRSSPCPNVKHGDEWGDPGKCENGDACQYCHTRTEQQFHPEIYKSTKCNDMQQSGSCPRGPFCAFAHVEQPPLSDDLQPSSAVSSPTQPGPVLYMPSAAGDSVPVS
UACAUUUUAUUGUUGAGUUUCAUUUUCAUAUAUUCUUGUAGUGUCUGCUUGCCUGUGACUUCUGGUAAAAUAAAAUAAGCCUUUGAAUUAGCAUGCUCAUGGUAUUUAACAUUUUCUAAA: 0.622 ratio
CUUAUGGCUGCAGAAACAGGAAGUGGAAAAACUGGUGCUUUUAGUAUUCCCGUUAUCCAGAUAGUGUAUGAAACUCUGAAAGACCAACAGGAAGGAAAGAAAGGGAAAACAACUAUUAAA: 0.722 ratio
AAAGAACCUCUCUCUGAUGAAGAUGAGGACAGUGAUGAUGAUGUUGAACCCAUUUCUGAAUUUCGAUUUGUGCCCAGUGAUAAGUCAGCAUUGGAGGCGAUGUUCACUGCAAUGUGCGAG: 0.298 ratio
CUGAGGAUACCACUGAAAGAGACAUUAAAGAAUCAUUUGAGGGCUCUCGUUCGGGCAGAAUAGUCACUGAUCGGGAAACUGGUUCUUCCAAAGGGUUUGGUUUUGUAGACUUUAAUAGUG: 0.891 ratio
AAUAGAGGAUCCACCUCCCAAAGUGCUGGGAGUAAAGGUGUGGCCACCACACCUAACUUGAUGGAUAUAUAUUUUUUUUAAUAUGAAUCUUCCUGUUCGUCCAGGGAAGAAAGAUUUGUU: 2.95 ratio
CACAGAGGCACCACCCCCUCCUCCUUCUUUCCACACCUGCAAACUCUUUUACUUGGGCUGAAUAUUUAGUGUAAUUACAUCUCAGCUUUGAGGGCUCCUGUGGCAAAUUCCCGGAUUAAA: 0.835 ratio
UAAAUUAGGGCUGCCGUUUUCUGUUUCUCCCUGGGCUGCGGAAAGCCAGAAGAUUUUAUCUAGUUUGUACAAGGCUGCUGGUGUUCCCUCUUUUUUUCCACGAGGGUGUUUUUGGCUGCA: 1.24 ratio
CCCUCCCCGGGCCACCCACCCCUCCCGGCUCCCCGCCGAGAUCCAGGUUUCUUCUUAUUUCAUAGCCAGCCAGAACAAUGUUCUACGCACAUUUUGUCCUCAGUAAACGAGGGCCUCUGG: 1.54 ratio
AGAGAUAAAGCAUCUAGGAACAUGCGAGGCUCCCGGAUGAAUGGGUUGCCUAGCCCCACUCAUAGUGCCCACUGUAGCUUCUACCGAACCAGAACCUUGCAGGCACUGAGUAAUGAGAAG: 0.0856 ratio
UGUAGUUUCUUGAUUUAGUGGCUGGGCUGCUCGGGUUUUUCCUUUAGGAAAAGCCUAAAGAUUAGGUUGUAAGAAAAACAGAAGCCAUGUUUCGAAGACCUGUGUUACAGGUAUUUCGUC: 1.64 ratio
CUGAGGAUACCACUGAAGAGACCUUAAAAGAAUCAUUUGAGGGCUCUCGUUCGGGCAGAAUAGUCACUGAUCGGGAAACUGGUUCUUCCAAAGGGUUUUGGUUUUGUGACUUUAAUAGUG: 0.456 ratio

Sample 2
Target: Prothrombin, mature alpha-thrombin (F2, Homo sapiens, UniProt P00734)
Technique: aptamer microarray, sandwich
Form: DNA with 2'F-ANA
Medium: in vitro
Tested at: 200 nM
Notes: whole 15-mer aptamer, many near background
Together with: Cy3 exosite-II aptamer, 400 nM
Reading: higher = stronger binding
Measurement: mean fluorescence intensity
Sequence: GGTTGGTGTGGTTGG
2'F-ANA at 1 2 3 4 5 6 7 13: 47.9 a.u.
2'F-ANA at 1 3 8 10 11 13: 77.2 a.u.
2'F-ANA at 1 5 7 9 10 12 13 14 15: 49.8 a.u.
2'F-ANA at 3 13: 1010 a.u.
2'F-ANA at 1 2 4 5 6 7 9 10 14: 50.3 a.u.
2'F-ANA at 1 6 7 8 13: 150 a.u.

Sample 3
Target: Transcriptional repressor CTCF (CTCF, Homo sapiens, UniProt P49711, residues 1-727, full length assumed)
Sequence of UniProt P49711 (whole entry, looked up): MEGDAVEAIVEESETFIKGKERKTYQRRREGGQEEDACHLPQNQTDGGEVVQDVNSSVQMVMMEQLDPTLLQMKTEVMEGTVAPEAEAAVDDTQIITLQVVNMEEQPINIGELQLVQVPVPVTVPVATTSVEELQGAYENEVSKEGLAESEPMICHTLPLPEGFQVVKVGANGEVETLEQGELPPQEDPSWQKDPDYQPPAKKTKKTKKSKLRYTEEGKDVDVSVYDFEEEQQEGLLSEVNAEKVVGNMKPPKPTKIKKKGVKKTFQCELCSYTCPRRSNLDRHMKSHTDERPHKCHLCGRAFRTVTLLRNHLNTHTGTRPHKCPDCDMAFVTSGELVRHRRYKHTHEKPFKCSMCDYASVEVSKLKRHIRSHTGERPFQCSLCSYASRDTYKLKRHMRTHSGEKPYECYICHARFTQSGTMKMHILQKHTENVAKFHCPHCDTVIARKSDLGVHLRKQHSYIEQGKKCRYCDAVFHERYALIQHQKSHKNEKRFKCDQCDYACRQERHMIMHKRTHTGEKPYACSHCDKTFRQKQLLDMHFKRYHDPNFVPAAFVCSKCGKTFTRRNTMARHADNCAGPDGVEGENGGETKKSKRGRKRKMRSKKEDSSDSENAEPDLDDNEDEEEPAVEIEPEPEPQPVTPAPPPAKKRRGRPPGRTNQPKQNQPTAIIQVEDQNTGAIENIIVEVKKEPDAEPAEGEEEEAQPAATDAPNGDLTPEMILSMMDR
Technique: protein-binding microarray
Form: double-stranded DNA, one strand shown
Medium: in vitro
Tested at: not given
Notes: k-mer, scored over probes, only values ≥0.25
Reading: higher = stronger binding
Measurement: E-score
AATATTAT: 0.353
GAGTATTA: 0.294
GCAATATA: 0.299
ATAGATTA: 0.36
AATGGTAA: 0.301
GTTGTACA: 0.283
GGCGGGGA: 0.369
AATACCTA: 0.278
ATTTTCCG: 0.37
GCCCCGCC: 0.27

Further values, each from its own experiment
PhoQ, residues 284 288 289 292 302 303 TLSLKA — fold induction (PhoP, residues 12 14 15 18 19 GQALL (Escherichia coli, UniProt P23836); Sort-seq, item: YFP reporter; E. coli; PhoQ-PhoP variant library, together with: 10 µM Mg2+; baseline: high Mg2+ state, higher = stronger signaling): 0.249

Some of these lines once more (sample 2):
2'F-ANA at 1 2 3 4 5 6 7 13: 47.9 a.u.
2'F-ANA at 1 3 8 10 11 13: 77.2 a.u.
2'F-ANA at 1 5 7 9 10 12 13 14 15: 49.8 a.u.
2'F-ANA at 3 13: 1010 a.u.
